Measured values gathered from unrelated publications.
Compare with care: the assays were run in different laboratories. pIC50: −log10 of the molar value.

| SMILES | cell line | assay | setting | scale | measurement | value |
| --- | --- | --- | --- | --- | --- | --- |
| CN1CCN(C2(CNC3CCN(c4cccc(-c5cc6cc(F)ccc6[nH]5)c4)CC3)CCC2)CC1 | M14 | – | – | – | CC50 | 6.91 µM |
| Nc1nc2nc[nH]c2c(=S)[nH]1 | HCT-116 3-6 | clonogenic | 0.3125 µM, 10 days | – | surviving fraction | 1.03 |
| C/C=C(/C)C(=O)O[C@H]1C(C)=C2[C@H]([C@@H]1OC(=O)CCCCCCC)[C@@](C)(OC(C)=O)C[C@H](OC(=O)CCC)[C@@]1(O)[C@H]2OC(=O)[C@@]1(C)O | HEK293T | RNA-seq, measured: ATF3 mRNA | 10 µM, 6 h | baseline: vehicle | log2 fold change | 2.71 |
| Cc1cc(C(C)(C)c2ccc(O)c(C)c2)ccc1O | HepG2 spheroids | cell proliferation, flow cytometry, measured: Ki67 | 40 µM, 24 h | baseline: solvent control | inhibition | 18.5% |
| CCN(CC)c1ccc(C=NNC(=O)CSc2nc3ccccc3c(=O)n2Cc2ccc(S(N)(=O)=O)cc2)c(O)c1 | SK-MEL-5 | NCI five-dose screen | – | – | CC50 | 77.5 µM |
| Cn1cncc1C1=CN(c2ncnc3[nH]cnc23)CCS1 | SN12C | – | renal cancer | – | CC50 | > 200 µM |
| CC(C)N1CCC(NC2CCN(c3cccc(-c4cc5cc(F)ccc5[nH]4)c3)CC2)CC1 | SN12C | – | – | – | GI50 | 1.61 µM |
| O=C1CCP(=S)(c2ccccc2)CC1 | HCT-116 | MTT | 72 h | baseline: IC50 HaCaT over IC50 HCT-116 | selectivity index | 3.2 |
| COc1ccc([C@H]2c3[nH]c4ccc(Cl)cc4c3CCN2C(=O)Oc2ccc(Cl)cc2)cc1 | human dermal fibroblasts with PBMC | cytokine secretion, measured: sIL-10 | 0.01 µM, 48 h | – | inhibition | 73% |
| COc1c(CCC[P+](c2ccccc2)(c2ccccc2)c2ccccc2)cc2c(c1OC)OCO2.[I-] | M14 | SRB | – | – | TGI | -4.72 log M |
| COc1c(C)c2c(c(O)c1C/C=C(\C)CCC(=O)O)C(=O)OC2 | SK-N-AS | cell proliferation | – | – | pIC50 | 5.49 |
| COc1cc(CCC[P+](c2ccccc2)(c2ccccc2)c2ccccc2)c(OC)c2c1OCO2.[I-] | SK-MEL-5 | SRB | – | – | GI50 | -5.92 log M |
| Nc1ncc(-c2nc(N3CCOCC3)nc(N3CCOCC3)n2)c(C(F)F)n1 | DoTc2 4520 | cell growth | 72 h | – | GI50 | 0.083 µM |
| Nc1ncnc2c1ncn2[C@@H]1O[C@@H]2COP(=O)(O)O[C@H]3[C@@H](O)[C@H](n4cnc5c(=O)[nH]cnc54)O[C@@H]3COP(=O)(O)O[C@H]2[C@H]1O | HFF-1 | RNA sequencing Reactome analysis, measured: Reactome R-HSA-3000178 ECM proteoglycans | together with: West Nile virus infection | baseline: West Nile virus infected cells, downregulated pathway | pathway fold enrichment | 6.2 |
| COc1ccc2c(c1)[nH]c1c(C)nccc12 | DU-145 | bisulfite pyrosequencing, measured: RASSF1A promoter CpG site 17 | concentration not given | baseline: vehicle | methylation reduction | 1.9% |

A few entries again:
| SMILES | cell line | assay | setting | scale | measurement | value |
| --- | --- | --- | --- | --- | --- | --- |
| Nc1ncnc2c1ncn2[C@@H]1O[C@@H]2COP(=O)(O)O[C@H]3[C@@H](O)[C@H](n4cnc5c(=O)[nH]cnc54)O[C@@H]3COP(=O)(O)O[C@H]2[C@H]1O | HFF-1 | RNA sequencing Reactome analysis, measured: Reactome R-HSA-3000178 ECM proteoglycans | together with: West Nile virus infection | baseline: West Nile virus infected cells, downregulated pathway | pathway fold enrichment | 6.2 |
| COc1ccc2c(c1)[nH]c1c(C)nccc12 | DU-145 | bisulfite pyrosequencing, measured: RASSF1A promoter CpG site 17 | concentration not given | baseline: vehicle | methylation reduction | 1.9% |
